Measured values collected from several papers.
Lines come from different studies, so protocols differ.
Target: Tyrosine-protein kinase Fes/Fps (FES, Homo sapiens, UniProt P07332)

Structure (SMILES)	observed	action	method	concentration	relative to	endpoint	value
CCN1CCN(Cc2ccc(C(=O)Nc3ccc(C)c(NCc4cnc5[nH]ccc5c4OC)c3)cc2C(F)(F)F)CC1	binding	–	competition with immobilised ligand	1 µM	–	remaining binding	8.2%
Cc1cccc(O[C@H]2CCC[C@@H](C(C)CNCc3ccncc3)C2)c1 (relative stereo)	enzyme activity	inhibitor	–	10 µM	–	inhibition	-3%
CNC1C[S+]2CC[S+]3CC[S+](C1)[Ru-4]321([N]=C=S)[n]2c3ccc(OC)cc3c3c4c(c5cc(F)c[n+]1c5c32)C(=O)NC4=O (stereo not drawn)	–	–	KinomeScan	0.1 µM	untreated	remaining binding	95%
COc1c(OCCCN2CCOCC2)ccc2c1N=C(NC(=O)c1cnc(N)nc1)N1CCN=C21	kinase activity	inhibitor	–	1 µM	untreated control	remaining activity	105%
COc1cc(Nc2nccc(-c3cnn4nc(OC)ccc34)n2)cc(C(F)(F)F)c1	binding	–	competition with immobilised ligand	1 µM	–	remaining binding	84%
CNC(=O)C[C@H](Cc1ccc(C#N)cc1)NC(=O)c1cc(-c2ccc(CN[C@H](C)c3ccc(C)cc3)o2)ccc1Cl	enzyme activity	inhibitor	–	1 µM	–	activity vs control	99%
C=CC(=O)Nc1cccc(-c2cnc3[nH]cc(C(=O)NC(C)(C)C)c3n2)c1	kinase activity	–	–	0.1 µM	–	inhibition	8%
CN1CC[C@@H](COc2cnc(C#N)cc2-c2ccn3nc(NC(=O)C4CC4)cc3c2)C1	enzyme activity	inhibitor	–	1 µM	–	inhibition	-5%
NC(=O)C[C@H]1CCc2sc3ncnc(O[C@H]4CC[C@H](N5CCOCC5)CC4)c3c21	enzyme activity	inhibitor	–	10 µM	–	inhibition	11%
Cc1ccc(-c2c(/C=C(\C#N)C(=O)NC(C)C)n(CCCO)c3ncnc(N)c23)cc1	cell-free assay	–	competition with immobilised ligand	1 µM	–	remaining binding	98%
C[C@H]1CN(C(=O)c2cn(-c3ccnc(N)n3)c3cc(C#CC4(O)CCCCC4)ccc23)CCN1	enzyme activity	inhibitor	FRET	1 µM	–	inhibition	103%
C=CC(=O)N1CCCC(n2c(=O)c3ncccc3n(Cc3ccc(Oc4ccccc4)cc3)c2=O)C1 (stereo not drawn)	cell-free assay	–	competition with immobilised ligand	1 µM	–	remaining binding	83%
COc1c(Cl)cccc1Nc1c(-c2ccncc2C#C[C@@]2(C)CCCN2C(=O)/C=C/CN(C)C)[nH]c2c1C(=O)NCC2	cell-free assay	–	competition with immobilised ligand	3 µM	–	remaining binding	94%
C=CC(=O)N1Cc2nc(-c3cc(-c4cc(Cl)cnc4Cl)c(F)cc3F)n(-c3ccncn3)c2C1	cell-free assay	inhibitor	–	1 µM	–	inhibition	6%
CCN1CCN(Cc2ccc(NC(=O)c3ccc(C)c(NC(=O)c4cncc(-c5cccs5)c4)c3)cc2C(F)(F)F)CC1	binding	–	competition with immobilised ligand	1 µM	–	remaining binding	22%
